Results from different studies.
Protocols differ between the studies behind these lines.
Target: 3-phosphoinositide-dependent protein kinase 1 (PDPK1, Homo sapiens, UniProt O15530)
Sequence (O15530 1-556, as in one of the studies): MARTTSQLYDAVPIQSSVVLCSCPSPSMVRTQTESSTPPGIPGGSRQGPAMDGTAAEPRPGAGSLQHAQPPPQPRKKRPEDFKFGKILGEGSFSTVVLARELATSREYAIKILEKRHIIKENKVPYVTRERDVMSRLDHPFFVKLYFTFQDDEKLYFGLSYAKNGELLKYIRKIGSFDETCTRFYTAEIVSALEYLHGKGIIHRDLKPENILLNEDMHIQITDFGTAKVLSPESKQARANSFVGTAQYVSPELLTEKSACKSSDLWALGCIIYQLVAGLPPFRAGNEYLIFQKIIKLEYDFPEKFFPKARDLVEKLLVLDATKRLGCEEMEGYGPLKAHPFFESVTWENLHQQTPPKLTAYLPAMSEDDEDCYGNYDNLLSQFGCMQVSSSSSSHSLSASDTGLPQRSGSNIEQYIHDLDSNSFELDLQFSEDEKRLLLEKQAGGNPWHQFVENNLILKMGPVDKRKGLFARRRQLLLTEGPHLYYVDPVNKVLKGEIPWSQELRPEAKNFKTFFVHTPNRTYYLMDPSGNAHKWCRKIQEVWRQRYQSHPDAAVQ

For COc1cc(Nc2nccc(-c3cnn4nc(OC)ccc34)n2)cc(C(F)(F)F)c1, the remaining binding was 96% (binding, competition with immobilised ligand; 1 µM).
With Cc1nc2c(F)cc(-c3nc(Nc4ccc(CNC(=O)CCCCCCC(=O)NO)cc4)ncc3F)cc2n1C(C)C the inhibition was 68% (enzyme activity, inhibitor; 1 µM).
With Nc1nc(Nc2ccccc2)sc1C(=O)c1ccccc1 the remaining activity was 64% (enzyme activity, inhibitor; 10 µM).
The remaining activity of Cc1cccc(-c2ccc3nc(NC(=O)C4CCOCC4)nn3c2)c1 is reported as 103% (enzyme activity, Dundee kinase panel; 10 µM).
The inhibition of NC(=O)C[C@H]1CCc2sc3ncnc(O[C@H]4CC[C@H](N5CCOCC5)CC4)c3c21 is reported as 5% (enzyme activity, inhibitor; 10 µM).
O=c1c(-c2ccc(Cl)c(CN3CCOCC3)c2)coc2cc(O)ccc12 gave a remaining activity of 89% (enzyme activity, inhibitor; 1 µM).
The remaining activity of COc1c(OCCCN2CCOCC2)ccc2c1N=C(NC(=O)c1cnc(N)nc1)N1CCN=C21 is reported as 105% (kinase activity, inhibitor; 1 µM; baseline: untreated control).
Cc1cccc(-c2ccc3nc(NC(=O)C4CCCCC4)nn3c2)c1 gave a remaining activity of 101% (enzyme activity, Dundee kinase panel; 10 µM).
C=CC(=O)N1CCCC(n2c(=O)c3ncccc3n(Cc3ccc(Oc4ccccc4)cc3)c2=O)C1 (centres unmarked) gave a remaining binding of 100% (cell-free assay, competition with immobilised ligand; 1 µM).
For CNS(=O)(=O)Nc1nccc(Cc2c(C)c3ccc(Oc4ncccc4F)cc3oc2=O)c1F, the remaining binding was 87% (binding, competition with immobilised ligand; 10 µM).
C=CC(=O)N1CCc2ccc(-n3c(=O)ccc4cnc5ccc(-c6cnn(C)c6)cc5c43)cc21 has a remaining binding of 94% (KINOMEscan; 1 µM; baseline: DMSO control).
CS(=O)(=O)Nc1cccc(-c2csc3cnc(Nc4ccc(N5CCN(CCCCCOc6cccc7c6C(=O)N(C6CCC(=O)NC6=O)C7=O)CC5)cc4)nc23)c1 (centres unmarked) gave an inhibition of -3.27% (probe labelling, inhibitor, KiNativ chemoproteomics; MOLT-4; 1 µM).
With c1ccc2c(Nc3cc(C4CCC4)[nH]n3)nc(Nc3ccc4nc[nH]c4c3)nc2c1 the remaining activity was 56% (enzyme activity, inhibitor; 0.25 µM).
Under “activity vs control”, CNC(=O)C[C@H](Cc1ccc(C#N)cc1)NC(=O)c1cc(-c2ccc(CN[C@H](C)c3ccc(C)cc3)o2)ccc1Cl is recorded as 90% (enzyme activity, inhibitor; 1 µM).
With O=C=[N][Ru-4]123([n]4c5ccc(O)cc5c5c6c(c7cc(F)c[n+]1c7c54)C(=O)NC6=O)[S+]1CC[S+]2CC[S+]3CC1 (centres unmarked) the remaining activity was 24% (enzyme activity; 100 nM, human enzyme, with: 10 µM ATP; baseline: untreated).
COc1ccc(NC(=O)Nc2ccc3c(c2)C(=O)N(C(C)CO)CC(C)C(CN(C)Cc2ccc4c(c2)OCO4)O3)cc1 (centres unmarked) has a remaining activity of 98% (kinase activity, KinaseProfiler; 0.03 µM, species human; baseline: control).
The remaining activity of Nc1ncc(-c2cc(-c3cnn(CC(F)(F)F)c3)ncc2F)nc1C(=O)NC1CNCC(F)C1 (centres unmarked) is reported as 98.2% (enzyme activity; 1 µM; baseline: DMSO control).
With CN1CCN(Cc2ccc(NC(=O)c3cccc(C#Cc4cnc(N)c5ncccc45)c3)cc2C(F)(F)F)CC1 the remaining binding was 60% (cell-free assay, competition with immobilised ligand; 0.5 µM).
The inhibition of Cc1cccc(O[C@H]2CCC[C@@H](C(C)CNCc3ccncc3)C2)c1 (relative stereo) is reported as -9% (enzyme activity, inhibitor; 10 µM).
CCN1CCN(Cc2ccc(C(=O)Nc3ccc(C)c(NCc4cnc5[nH]ccc5c4OC)c3)cc2C(F)(F)F)CC1 gave a remaining binding of 99% (binding, competition with immobilised ligand; 1 µM).
The remaining binding of C=C1CCCCCCCCCC(CO)C1=O (centres unmarked) is reported as 100% (cell-free assay, competition with immobilised ligand; 10 µM).
For C=CC(=O)Nc1cccc(-c2cnc3[nH]cc(C(=O)NC(C)(C)C)c3n2)c1, the inhibition was 12% (enzyme activity, inhibitor; 0.1 µM).
The remaining binding of Cc1ccc(-c2c(/C=C(\C#N)C(=O)NC(C)C)n(CCCO)c3ncnc(N)c23)cc1 is reported as 100% (cell-free assay, competition with immobilised ligand; 1 µM).

Some of these lines once more:
With CN1CCN(Cc2ccc(NC(=O)c3cccc(C#Cc4cnc(N)c5ncccc45)c3)cc2C(F)(F)F)CC1 the remaining binding was 60% (cell-free assay, competition with immobilised ligand; 0.5 µM).
With Cc1nc2c(F)cc(-c3nc(Nc4ccc(CNC(=O)CCCCCCC(=O)NO)cc4)ncc3F)cc2n1C(C)C the inhibition was 68% (enzyme activity, inhibitor; 1 µM).
